Assay results from different studies.
Numbered parts are unrelated; each lists some results of a single study. Changes are numbered by the printed parent chain.

Block 1
Target: Sal-like protein 4, full length isoform B (SALL4, Homo sapiens, UniProt Q9UJQ4-2, residues 1-616)
Method: universal PBM
Form: double-stranded DNA, one strand shown
Medium: in vitro
Concentration: not given
Setting: 8-mer, flanks averaged, mean of replicates
Reading: higher = stronger binding
Residues (chain): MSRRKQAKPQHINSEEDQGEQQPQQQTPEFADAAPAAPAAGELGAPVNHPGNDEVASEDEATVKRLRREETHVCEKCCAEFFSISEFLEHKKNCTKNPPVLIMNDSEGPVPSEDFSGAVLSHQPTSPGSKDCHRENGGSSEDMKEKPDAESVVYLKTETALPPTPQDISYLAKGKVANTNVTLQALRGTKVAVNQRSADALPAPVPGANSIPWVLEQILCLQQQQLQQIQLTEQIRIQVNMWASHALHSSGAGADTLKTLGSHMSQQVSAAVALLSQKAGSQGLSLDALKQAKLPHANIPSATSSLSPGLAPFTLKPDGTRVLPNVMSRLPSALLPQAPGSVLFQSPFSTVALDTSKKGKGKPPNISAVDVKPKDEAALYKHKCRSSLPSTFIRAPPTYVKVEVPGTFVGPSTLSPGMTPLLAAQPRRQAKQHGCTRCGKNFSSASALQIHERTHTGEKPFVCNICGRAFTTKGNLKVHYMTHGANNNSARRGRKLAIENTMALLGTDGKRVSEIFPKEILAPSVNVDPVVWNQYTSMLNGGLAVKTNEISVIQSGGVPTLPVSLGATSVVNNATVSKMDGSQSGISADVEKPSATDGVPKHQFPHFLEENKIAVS
Sequence	E-score
ATGTCCAC	-0.0546
CCTACTCG	-0.173
AATTGACC	0.0543
CCAGTTCG	-0.198
AGTTCCTC	-0.116
ACAGGCTC	-0.198
CAATAGTA	0.136
AACCATAC	0.118
AGTCCCCG	-0.106
CGAGACCC	-0.344
CCAAGACA	0.0526
CCCAACCA	-0.12
ATTAAATC	0.254
CACTTATG	0.231
ACCAAAAT	0.139
GTACCTAA	0.043
GACATCTA	0.0617
AGGCCAGG	-0.25
GAGTAACC	-0.119
CTCCTTTC	-0.153
AATACCCA	0.193
CCAGAAAG	-0.102
GAAAAAAC	0.226
CGATATGC	0.066
CAACTGTG	-0.0389

Block 2
Target: ABI1, truncated, D143A, DHFR fusion (Arabidopsis thaliana)
Method: DHFR PCA, deep sequencing
Medium: yeast
Setting: methotrexate growth selection, single substitutions
With: (+)-ABA 0 µM
Relative to: wild-type fitted maximum
Reading: higher = stronger binding
Starting sequence: PYL1, truncated, DHFR fusion (Arabidopsis thaliana); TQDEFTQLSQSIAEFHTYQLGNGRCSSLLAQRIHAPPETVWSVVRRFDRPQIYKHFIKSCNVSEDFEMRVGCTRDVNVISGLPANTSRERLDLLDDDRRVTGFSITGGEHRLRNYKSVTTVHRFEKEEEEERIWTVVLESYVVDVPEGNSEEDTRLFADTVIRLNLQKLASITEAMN
Variant	relative binding score [%]
L169T	-4.54
I162L	4.86
G71I	-1.87
G81C	22.1
Q2T	21.3
E151F	-7.07
H34Y	28.7
S59W	7.98
E125N	19.4
S117Y	-1.31
N85R	47.6
I57Q	-3.02
E131K	56.2
T106V	62.6
T1N	24.9
G102N	-2.41
E89P	3.5
Q7P	6.63

Block 3
Target: Centromere-binding protein 1, full length, His-tagged (CBF1, Saccharomyces cerevisiae, UniProt P17106, residues 1-351)
UniProt P17106, sequence (whole entry, looked up): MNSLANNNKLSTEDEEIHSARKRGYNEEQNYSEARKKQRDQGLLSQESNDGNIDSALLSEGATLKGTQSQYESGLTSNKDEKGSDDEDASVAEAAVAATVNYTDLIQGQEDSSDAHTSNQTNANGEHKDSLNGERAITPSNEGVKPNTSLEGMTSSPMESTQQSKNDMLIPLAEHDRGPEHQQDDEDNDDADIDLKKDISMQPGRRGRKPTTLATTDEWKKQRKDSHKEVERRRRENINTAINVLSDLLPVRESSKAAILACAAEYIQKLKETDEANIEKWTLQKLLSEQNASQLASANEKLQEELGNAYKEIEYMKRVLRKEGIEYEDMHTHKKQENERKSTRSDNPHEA
Method: competition protein-binding microarray
Form: double-stranded DNA, one strand shown
Medium: in vitro
Concentration: 2 µM
Setting: whole 60-bp probe, lowest competitor level
With: Pho4 competitor, 0.05 µM
Reading: higher = stronger binding
Shared flanks, not repeated: … GTCTTGATTCGCTTGACGCTGCTG
Sequence	fluorescence intensity
TTAAGAAGCCTTTTCCATGTGAGGAAGCTTCGCCTT	61 a.u.
AAGTTTGTAATTTTCCTCGTGTCCATAGTGGAAGAT	147 a.u.
CCCTTGCATCGCTGCCGTGTGGCGCGACCCACTGCG	67.2 a.u.
TCGCTCTTCGCTCTGAATGTGACGGCAAATTTCGAC	82.6 a.u.
CTTCTGTAAATTTGGGAGGTGGGTGGACGCGCCCCG	81.2 a.u.
GTCTTGTCTCATTTTCACGTGCTCTTCCCCACTTCA	1140 a.u.
ACCAGCTGTTCCCAGCACCTGACGATTACCGACCAG	166 a.u.
CCGCGTTGAGCAGCTCTCCTGCGGGCTTTCACAGAG	57.6 a.u.
CATACCCAACCTTGCACCGTGGGTGAAGATATTTGT	74.8 a.u.
TTACAGAGATACCAACACGTCCCATTGCAGTACATC	67 a.u.
CCTTGGTTGACTGCAAACGTGTGGAAATACGGAAAG	91.9 a.u.
CCTTCTCCCTGCATACACATGATAACCATCTACACC	148 a.u.
CTTCTATGACCTCTTCACGTGGCCGAATGTTCTGTT	780 a.u.
CATACCCAACCTTGTCACGGCACTTAAGATATTTGT	101 a.u.
CTAATCAGCAAGACACATGTGCCTTGCAGTAGGGCA	153 a.u.
AAATTACTAAGTTGTCACAGTACTTACCCCGTATGA	80.8 a.u.

Block 4
Target: RNA binding protein fox-1 homolog 2, RRM domain, GST-SBP tag (RBFOX2, Homo sapiens, UniProt O43251-10, residues 100-194)
Method: RNA Bind-n-Seq
Form: RNA
Medium: in vitro
Concentration: 365 nM
Setting: natural RNA segment, single round, ends assumed
Relative to: no-protein control
Reading: higher = stronger binding
Shared flanks, not repeated: GGGAGUUCUACAGUCCGACGAUC … UGGAAUUCUCGGGUGCCAA
Target sequence (chain): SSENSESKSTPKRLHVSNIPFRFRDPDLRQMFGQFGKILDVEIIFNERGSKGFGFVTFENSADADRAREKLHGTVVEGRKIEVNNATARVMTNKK
Sequence	RBNS enrichment (R)
UAAAGAGAAAAGUACAAGACAGAAAUCUUCUAGCACUUUGUAAACACAGUGAAUAACCUCUUGGAGUAUUUUUGGCUUUAUAUAAAACAAGGUUUUUAAUUGUAAAGUAU	0.645
CUGGAAUCAAUUGAAAUAAGAGGACUCAAGGUUUGUUCUAAUGAAGUUUGUCAAAUUACUCUUUGGAAUUGAGCCAAAAUCCUAGAGUUGAGUUUUUAUUCUUCCUUCCU	0.401
GAAGCGAUGUGUGUGCGGUUCAGGAAACUCCUCCAAGAGGAGGAGGAGUCCAAACAGGGAUGCCAGAGGAAGCUUUCCGUUUUCCUAGCCAACUUGUGUUCUGGGUUUGA	0.474
CAGGGUUUUUGUGCUGGUGUGGAUUAGUUUAACUCUUGUAUUCAACCGUUAGUGCUACCACCUUCUCACAUUACAAUACAAUUACUGGAAGCAAGUACUGCAUUUCCUAU	1.95
AUAAUGUAAUAAGAUUCUUUUCUCUUAAGGUAUCCUUGAAUUACACCAAAGAACCAGAAACUUAAUUUUGGUUAAAUUAUUUAUUUAUUUCAUGCAUUAAUUUUCUUUUU	1.39
UUCUUCUGGAAAUAGUUCAUCAAGUAUGUUUGUUGCUCAUUGUGAUACAUUAAAAACUGUAUCUGCAUAUUUACUCUGGGUCUUCUUUCUGAGUGGGCUUCUGCAGUGUU	0.595
UAAAUGCCUUUUUGUCCAUCCCUUUUUUCUUUGUUGUUUUUGUUGAAAACAAACUGGAAACUUGUUUCUUUUUUUGUAUAAAUGAGAGAUUGCAAAUGUAGUGUAUCACU	1.24
CCACCGUUAGGAUUCAGGCAGCAGUGUCUGUACCUCGGGUGGGAGGGAUGGGGCCAUCUCCUUCACCGUGGCUACCAUUGUCACUCGUAGGGGAUGUGGAGUGAGAACAG	0.841
CAGAAUUCAUUGAAGAUUUGUUUUGGGACAACUGGAAGAAUCAGCACCAUGGAUACUCGCCCGUGGGCAGGGCUGUGGUCAGCCAAGAAUAGAGGUCAUAUAGUUGGGCC	0.414
AGGGAGAACUGGUUGUGUAUUUAAGAGAAAUGAGAGUGCAUUGCAAAGUAGUUUCCCAAGGCAUUUCCCCUAUUGUUUACAUGGUCAAAAGGAAAAUCAAAAUCACUUCU	0.392
UAGUGUGGACUUUUGUGGGCACUGUCUGUCAUUGGCCACCCAGUCACGUACCGAGUGGGCAGUGUCACAGCCAAAGCUACCACUGAGCCACAGCGUAGGUCAUUGCUUGA	0.251
GGGAUUUUACAGAAGUCUCCUUGAAUUUGCCCUGCCUGGGGCAGUUUUGCAGAGGAACCUGCCAGAGAUUUAUUGGCUGGUCAGUCUCUUGUGAAAUAGUAUCAUGUGAG	0.368

Block 5
Target: RING finger protein unkempt homolog, zinc fingers 1-6, GST-SBP tag (UNK, Homo sapiens, UniProt Q9C0B0, residues 30-357)
Method: RNA Bind-n-Seq
Form: RNA
Medium: in vitro
Concentration: not given
Setting: RNA with constant flanks, human and mouse sites, ends assumed
Relative to: input RNA pool
Reading: higher = stronger binding
Shared flanks, not repeated: GGGAGUUCUACAGUCCGACGAUC … CAACAGAGGAUUGAGCAUCA
Residues (chain): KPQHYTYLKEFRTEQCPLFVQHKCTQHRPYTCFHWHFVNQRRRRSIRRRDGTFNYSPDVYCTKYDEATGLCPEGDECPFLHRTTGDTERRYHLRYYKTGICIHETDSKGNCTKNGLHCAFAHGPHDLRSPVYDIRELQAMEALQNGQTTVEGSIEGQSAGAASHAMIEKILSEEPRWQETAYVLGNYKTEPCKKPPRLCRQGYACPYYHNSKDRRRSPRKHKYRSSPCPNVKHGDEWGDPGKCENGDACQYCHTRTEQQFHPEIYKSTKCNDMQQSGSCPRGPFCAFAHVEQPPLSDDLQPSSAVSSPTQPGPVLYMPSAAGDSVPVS
Sequence	bound/input enrichment [ratio]
UGUUUAUCCUGGCCUGCUCAGGUUUCAUUCUUACAGAACCCAGGACUCCUUGCCCAGGAAUAGUACCACCCACAAUGAGCUGGGUCCUUCCUGCCAAUCACUUAUUAAGAACAUGCCUUA	0.169
AGGCGUCACCUUGAUGGCCUGCAACCCCUCCCUGCCUCAUUCUUAGUUCAAGAUCGUCUUUAGUCUCGCUGCGUCCCUUUCCCUUGCACCUGUUAACAUCUUUAAGGCAGGAGCUGAUGA	0.933
GAAGACAAGCCAGUGAACGUUAAUGAAGUACCUGACUAUCAAGAAGACAUUCACACGUACCUUAGGGAAAUGGAGGUUAAAUGUAAACCUAAAGUGGGUUACAUGAAGAGGCAGCCAGAC	0.285
ACAAAGAAGAUGUCAGAAAACAAAGACAAGAAUGGCAAGAAAAGCAGCAAGAACAAGAAAAGUUUUAAAGAAAGAUGUUGCUUACUAUGAGUGUCAAGGUGACGGAUGAAGCCAGCUGCU	0.295
CACAGAAUGUUGUCUAUAGAAAAUGGGAGUUUACUUUAAACAUGGUUAGAACCCAAACAGCUUUUUAAAGUUAAAUGUGGAAACAAAUCAAUAAAUUAUAUGAACAAUUUAGAUACGGUA	2.74
GAAUACAUAGGUGAAGAAGAAGCUACAUUAGUUGAUUUUGUUUGCUCUAAGGUUAUGGCACAUAGUUCACCACAGAGCAUUUUAGAUGAUGUUGCCAUGGUACUAGAUGAAGAAGCAGAA	2.12
CAGGCCAGAAACAAGAGGAAGCAAGACACCAAGAGCUUGAAGCAGAAGGACACUAAGAAGAAAUUGAAGGCUGAGAAAGAGAAGAUGAAGACAAAGCAGGAAAAGCUGAAGGAAAAGGUA	0.422
CUCCCACCCGCGUGUGUAAGCGCGGCCCGCCUCCUACAUCCAGCCCGCGCCCUCCAACCGCAUAGGAUCCAUGUAUUUAUUUUCCUUGAGUUUUUAUUUAUGCUGUAACUCGUGUCAAGC	5
AUCCGUGAAUUGGUGUCACGGGGGCGGAGUGUCCACUUUUCUGAGGCUGAACAGCGCUGCAUAUCUCGUGGCUUCACACCAGCCCAGUUCCAGGCAGCUCUGGAUGAAUAUGAGGAGCUA	0.0662
GCUCCUGGUACACCAGAGGUCAAGGCCGGUGGGGUUUUCUUUUUUUAAUUGGUUGUUGAGAAGUUUCAGAAGUUCGUUUUCCAGCUGUGGUCAUUUCAGACACAUCUGCACCAUAACUCA	0.398
GGUAUCAGAUCUCAAAACCAAGGCUCUCUUGCCCAGGGGAAAAGCUUUUUAAUGAGCAAAUUUUCAUCUCUAAAUCAAAAAGUAAAGCAGACCAAAUCCAAUGUGAACAUCGGCAACCUA	0.158

Block 6
Target: CCNA2, cyclin fold, Cln2 fusion (human)
Method: yeast growth competition, sequencing
Medium: yeast
Setting: strong parent motif
Relative to: not given
Reading: higher = stronger binding
Starting sequence: SGO1 docking peptide (human); PLAKRALKYTDEK
Variant	normalised enrichment score
PLAKRALKATDEK [Y9A]	0.313
PLAKRALKYTDEA [K13A]	3.96
PLAKRALKYADEK [T10A]	3.75
PLAKRALAYTDEK [K8A]	2.7
PLAARALKYTDEK [K4A]	1.38

Excerpt of the above (block 2):
Variant	relative binding score [%]
E125N	19.4
S117Y	-1.31
N85R	47.6
I57Q	-3.02
E131K	56.2
T106V	62.6
T1N	24.9
